Assay results pooled from the literature.
Parts stem from different laboratories: compare values within a part only. Substitutions count along the parent as printed.

Series 1
Target: Ras GTPase-activating protein-binding protein 1, full length (G3BP1, Homo sapiens, UniProt Q13283)
Chain of UniProt Q13283 (whole entry, looked up): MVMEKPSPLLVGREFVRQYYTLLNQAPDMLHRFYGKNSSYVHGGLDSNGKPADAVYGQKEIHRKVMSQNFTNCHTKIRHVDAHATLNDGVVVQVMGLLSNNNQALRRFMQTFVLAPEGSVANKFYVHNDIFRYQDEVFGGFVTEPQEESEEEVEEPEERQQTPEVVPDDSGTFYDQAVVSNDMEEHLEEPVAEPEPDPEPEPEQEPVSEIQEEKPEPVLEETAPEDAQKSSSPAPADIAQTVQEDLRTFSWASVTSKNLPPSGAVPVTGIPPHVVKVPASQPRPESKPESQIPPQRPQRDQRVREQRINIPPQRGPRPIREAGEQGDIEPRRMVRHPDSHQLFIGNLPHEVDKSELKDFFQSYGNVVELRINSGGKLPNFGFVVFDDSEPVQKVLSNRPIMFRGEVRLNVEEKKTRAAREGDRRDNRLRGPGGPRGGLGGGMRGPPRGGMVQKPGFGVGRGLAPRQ
Technique: RNA Bind-n-Seq
Form: RNA
Matrix: in vitro
Tested at: 200 nM
Notes: whole 134-nt RNA, ends assumed
With: 150 mM KCl
Relative to: input library
Direction: higher = stronger binding
All sequences stand within: GGGAGUUCUACAGUCCGACGAUC … UGGAAUUCUCGGGUGUCAAGG
| Strand | log2 enrichment |
| --- | --- |
| CACAGACAACACGCACCCACACAGACACAGAGGGAAGGGGUUGGGAUGGGGACAGGGUGCACAGCAGGGCGGGGUAGGUCCCCAGCCCCU | 1.91 |
| UCAAGUCCUGUGCUACACAUCGUAUGUACCGAAUCGGGGCCGGCCGGGCCGGGGAAAGUAUUAUGUUACGCCGUUCGGAUCUGCACUUCC | -0.272 |
| CUCAAGUCCUGUGCUACACAUCGUAUGUACCGAAUCGGUUUUUGGUGGUUUGGAAAGUAUUAUGUUACGCCGUUCGGAUCUGCACUUCCA | -0.571 |
| UCAAGUCCUGUGCUACACAUCGUAUGUACCGAAUCGGCCCCGGCCCCGGCCCCGGAAAGUAUUAUGUUACGCCGUUCGGAUCUGCACUUC | -0.876 |
| GAUCUCCGGGCUCAGUUGCAGAUUCUGGCCAACAUGGACAGCCAGCUAAAAGAGCUACAGAGUCAGCAUACCCAUUGUGCCCAGGACCUG | -1.28 |
| UCAAGUCCUGUGCUACACAUCGUAUGUACCGAAUCGGAAAAAGGAAAGGAAAGGAAAGUAUUAUGUUACGCCGUUCGGAUCUGCACUUCC | -1.36 |
| CUCAAGUCCUGUGCUACACAUCGUAUGUACCGAAUCGGGGUGGGGUGGGGUGGAAAGUAUUAUGUUACGCCGUUCGGAUCUGCACUUCCA | 1.24 |

Series 2
Target: CCNA2, cyclin fold, Cln2 fusion (human)
Technique: yeast growth competition, sequencing
Matrix: yeast
Notes: strong parent motif
Relative to: not given
Direction: higher = stronger binding
Parent: CDC25A docking peptide (human); PPHRRRLLFACSP
| Substitution | normalised enrichment score |
| --- | --- |
| PPHRRWLLFACSP [R6W] | 1.94 |
| IPHRRRLLFACSP [P1I] | 2.66 |
| PPHRRRLLMACSP [F9M] | 1.37 |
| PPHRRRLLFACVP [S12V] | 2.99 |
| PPHRRRLLFACSD [P13D] | 4.04 |
| PPHRRRLLFACKP [S12K] | 1.53 |

Series 3
Target: Sal-like protein 4, full length isoform A (SALL4, Homo sapiens, UniProt Q9UJQ4, residues 1-1053)
Chain of UniProt Q9UJQ4 (whole entry, looked up): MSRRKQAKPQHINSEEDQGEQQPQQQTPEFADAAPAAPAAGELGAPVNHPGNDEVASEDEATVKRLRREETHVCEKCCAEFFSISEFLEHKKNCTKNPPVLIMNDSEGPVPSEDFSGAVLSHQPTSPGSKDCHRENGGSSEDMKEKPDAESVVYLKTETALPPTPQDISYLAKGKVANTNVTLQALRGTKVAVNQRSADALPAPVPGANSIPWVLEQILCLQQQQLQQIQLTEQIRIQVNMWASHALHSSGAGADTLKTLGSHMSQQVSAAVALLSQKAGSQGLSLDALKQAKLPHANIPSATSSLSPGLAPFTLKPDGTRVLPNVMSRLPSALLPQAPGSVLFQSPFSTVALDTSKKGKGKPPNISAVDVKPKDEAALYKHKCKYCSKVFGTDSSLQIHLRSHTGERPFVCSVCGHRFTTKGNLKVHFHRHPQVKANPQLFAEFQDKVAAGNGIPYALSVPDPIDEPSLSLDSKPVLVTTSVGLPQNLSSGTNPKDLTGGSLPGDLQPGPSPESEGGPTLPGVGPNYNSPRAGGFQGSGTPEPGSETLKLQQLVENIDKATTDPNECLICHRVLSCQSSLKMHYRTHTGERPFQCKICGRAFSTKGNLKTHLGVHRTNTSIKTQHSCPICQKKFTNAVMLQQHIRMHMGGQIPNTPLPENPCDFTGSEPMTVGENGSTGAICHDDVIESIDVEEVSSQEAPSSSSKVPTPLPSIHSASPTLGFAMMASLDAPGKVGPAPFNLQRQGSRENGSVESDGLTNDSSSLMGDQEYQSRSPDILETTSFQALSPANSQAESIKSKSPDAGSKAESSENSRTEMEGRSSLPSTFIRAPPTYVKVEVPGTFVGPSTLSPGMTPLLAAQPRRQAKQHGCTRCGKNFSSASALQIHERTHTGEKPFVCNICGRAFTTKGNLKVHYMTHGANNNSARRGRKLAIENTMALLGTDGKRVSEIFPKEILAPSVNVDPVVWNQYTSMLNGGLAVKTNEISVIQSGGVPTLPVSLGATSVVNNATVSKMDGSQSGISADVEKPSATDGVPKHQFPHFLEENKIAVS
Technique: universal PBM
Form: double-stranded DNA, one strand shown
Matrix: in vitro
Tested at: 600 nM
Notes: 8-mer, flanks averaged, mean of replicates
Direction: higher = stronger binding
| Strand | E-score |
| --- | --- |
| GCTAGAAA | 0.121 |
| CTAGAAAC | 0.0404 |
| GGTCCGGA | -0.288 |
| ACGTTGAC | -0.0542 |
| AGCACGTA | 0.00685 |
| CGCTAACA | 0.0236 |
| TCGAGACA | -0.0137 |
| AACCTGGT | -0.187 |

Mixed results
| Molecule | target | assay | test system | setting | scale | measurement | value |
| --- | --- | --- | --- | --- | --- | --- | --- |
| PhoQ, residues 284 288 289 292 302 303 SASVAL | PhoP, residues 12 14 15 18 19 AQALL (Escherichia coli, UniProt P23836) | Sort-seq, item: YFP reporter | E. coli | PhoQ-PhoP variant library, with: 10 µM Mg2+ | relative to: high Mg2+ state, higher = stronger signaling | fold induction | 6.99 |

Excerpt of the above (series 3):
| Strand | E-score |
| --- | --- |
| CTAGAAAC | 0.0404 |
| AACCTGGT | -0.187 |
